Measured values gathered from unrelated publications.
Lines come from different studies, so protocols differ. Values joined by “and” are separate records of one study, mostly repeats; a detail may differ. Numbers after ± are the reported error.

Structure (SMILES) | cell line | assay | test system | conditions | how to read | measurement | value
CNC(=O)c1cc(Oc2ccc(NC(=O)Nc3ccc(Cl)c(C(F)(F)F)c3)cc2)ccn1 | MOLM-13 | cell growth |  | 72 h | baseline: GI50 resistant FLT3-ITD-D835Y over parental | selectivity ratio | 87.2
CN(C)c1ncnc2c1ncn2[C@@H]1O[C@H](CO)[C@@H](O)[C@H]1O | mock-transfected cells | TGFα shedding, agonist |  | 100 µM | baseline: unstimulated vehicle control | AP-TGFα release | 20.3% and 20.2% and 21.3%
CCN1CCN(Cc2ccc(NC(=O)c3ccc(C)c(-c4ccc5nc(NC(=O)C6CC6)cn5c4)c3)cc2C(F)(F)F)CC1 | persistent SET-2 | Western blot |  | 1 µM, 4 h |  | pSTAT3 level | decreased
Nc1ncnc2c1ncn2[C@@H]1O[C@H](CO)[C@@H](O)[C@H]1O | activated human T cells |  |  | 316 nM | higher = more TNF | TNF production | 4450 a.u. and 3830 a.u. and 4270 a.u.
C[C@H]1CN(C2COC2)CCN1c1ccc(Nc2cc(-c3ccnc(N4CCn5c(cc6c5CC(C)(C)C6)C4=O)c3CO)cn(C)c2=O)nc1 | TMD8 | calcium flux, FLIPR |  | 4 h preincubation, added: anti-IgM |  | maximum inhibition | 59.3%
N#C/C(=C\c1c[nH]nc1-c1ccc(Cl)c(Cl)c1)C(=O)O | LX-2 | qPCR, refers to: FN1 |  | 10 µM, hepatic stellate cell activation, added: TGFβ | baseline: untreated | mRNA level | decreased
Cc1nn(-c2nc3c(F)cc(F)cc3s2)c(O)c1C(c1ccccc1C(F)(F)F)c1c(C)nn(-c2nc3c(F)cc(F)cc3s2)c1O | THP1-Dual | IFN luciferase reporter |  | 1.25 µM, added: HT-DNA |  | inhibition | 1.19% and -3.18% and -13.3% and -14.4% and -0.433% and -10.7%
NS(=O)(=O)OC[C@@H]1C[C@@H](n2ccc3c(N[C@H]4CCc5ccccc54)ncnc32)C[C@@H]1O | BRD4-HiBiT cells | BRD4 degradation rescue, inhibitor |  | 2 h, 50% degradation rescued, added: dBET6 500 nM |  | EC50 | 0.094 µM
O=C(/C=C/C=C/C=C/C1CCCCC1)NC1=C[C@@](O)(/C=C/C=C/C=C/C(=O)NC2=C(O)CCC2=O)[C@@H]2O[C@@H]2C1=O | UMUC3 | cell growth, CellTiter-Glo |  | 78 h |  | GI50 | 17.7 µM
CCn1cc(-c2cc(Cn3ccnc3)cc3c2CCN([C@H](c2cc(OC)ccn2)C2CC2)C3=O)c(C(F)(F)F)n1 | YD-10B | cell growth, inhibitor |  | 120 h |  | EC50 | 14.8 µM
C[C@H](Nc1ccc2c(c1)OCCn1cc(N3C(=O)OC[C@H]3C(F)F)nc1-2)C(N)=O | KYSE-510 | cell growth, CellTiter-Glo |  | 120 h |  | Hill coefficient GR curve | 1.04
CC(C)NCC(O)c1ccc(O)c(O)c1 (centres unmarked) | mouse ventricular cardiomyocytes |  |  | dose not given, 0.423 s |  | sarcomere length | 1.75 µm
Cc1nn(-c2nc3c(F)cc(F)cc3s2)c(O)c1C(c1ccc(C(F)(F)F)cc1)c1c(C)nn(-c2nc3c(F)cc(F)cc3s2)c1O | RAW-ISG | TBK1 phosphorylation, western blot |  | 10 µM, added: poly(I:C) | baseline: DMSO | phospho-TBK1/TBK1 ratio | 1.08 and 1.1
CCOC(=O)C1=C(C)NC2=C(C(=O)OC(c3ccc(C)cc3)C2)C1c1ccccc1Cl (centres unmarked) | J774.A1 | cytotoxicity |  |  |  | EC50 | > 20 µM
Cc1cc(OCc2nnc(SC3CCCC3)n2-c2cccnc2)ccc1-c1ccc(S(C)(=O)=O)cc1 | BRD4-HiBiT cells | BRD4 degradation rescue, inhibitor |  | 8 h, added: dBET6 500 nM |  | EC50 | 21.9 µM
Cn1cc(-c2ccc(-c3cncc(Cl)c3N3CCC4(CCNC4=O)CC3)cc2)cn1 | COLO 205 | gene expression, microarray, refers to: SLC8A1 mRNA |  | concentration not given, 2 h | baseline: untreated cells | log2 fold change | 2.4
Cc1cc(Nc2ncc(Cl)c(Nc3ccccc3S(=O)(=O)C(C)C)n2)c(OC(C)C)cc1C1CCNCC1 | CLB-GE | phosphoproteomics LC-MS/MS, refers to: FAM59B phosphorylation |  | 200 nM, 60 min | baseline: untreated | log2 fold change | -1.61
COC[C@H](NC(=O)c1cnc(C)s1)C(=O)N[C@@H](COC)C(=O)N[C@@H](Cc1ccccc1)C(=O)[C@@]1(C)CO1 | BRD4-HiBiT cells | BRD4 degradation rescue, inhibitor |  | 8 h, 50% degradation rescued, added: dBET6 500 nM |  | EC50 | 4.46 µM
O=C(C[C@@H](C(F)F)n1ccc(F)n1)N1CCC(O)(Cn2cnc3c(cnn3-c3ccc(F)cc3)c2=O)CC1 | CHP-212 parental | annexin V/PI flow cytometry |  | 1 µM, 48 h |  | viable cells | 42.2% and 54% and 45.8%
O=C(NN=Cc1ccc(Br)cc1)C1CC(=O)N(c2ccc(F)cc2F)C1 (centres unmarked) | PPC-1 | wound healing |  | 10 µM, 12 h |  | cell migration | inhibited
CC(C)=CCNc1ncnc2c1ncn2[C@@H]1O[C@H](CO)[C@@H](O)[C@H]1O | mock-transfected cells | TGFα shedding, agonist |  | 100 nM | baseline: unstimulated vehicle control | AP-TGFα release | -0.56% and 0.37% and 0.9%
C=CC1=C(C)c2cc3[n-]c(cc4nc(cc5[n-]c(cc1n2)c(C)c5C=C)C(C)=C4CCC(=O)O)c(CCC(=O)O)c3C.[Zn+2] | SH-SY5Y | RNA-seq, refers to: PHLDA1 mRNA |  | 5 µM, 5 h | baseline: untreated cells | fold change | 1.72
CC/C(=N\NC(=O)NCc1cccc(O)c1)c1ccc(O)c(C)c1O | SK-OV-3 | ATP |  | 1 µM, 4 days, 3D gellan gum culture | baseline: untreated | relative cell number | 109%
Cc1cc(Nc2ncc(Cl)c(Nc3ccccc3S(=O)(=O)C(C)C)n2)c(OC(C)C)cc1C1CCNCC1 | Ba/F3 EML4-ALK v1, no mutation | cell viability |  |  |  | Emax | 100%
Cc1cnc(NC2CCOCC2)nc1-n1cnc(C(=O)NC(CN)c2cc(F)cc(Cl)c2)c1 (centres unmarked) | MINO | flow cytometry |  | 1 µM, 72 h |  | sub-G0 cells | 39.5%

Structure (SMILES) | cell line | assay | test system | conditions | how to read | measurement | value
O=C(COP(=O)(O)O)[C@@H](O)[C@H](O)[C@H](O)COP(=O)(O)O | HepG2 control sgRNA | CCK-8 |  | concentration not given | baseline: untreated wild type | cell proliferation | 180% and 191% and 199%
Clc1nc(NCc2ccco2)c2[nH]cnc2n1 | FD iPSC-derived cardiomyocytes | alternative splicing, RNA-seq, refers to: GRB7 exon chr17(+):39745912-39746000 |  | unit not given | baseline: DMSO minus compound | ΔPSI | -0.301
NCCCOc1cc(NC(=O)c2cc(OCCN)cc(C(=O)Nc3cc(OCCCN)c4ccccc4n3)n2)nc2ccccc12 | HT-1080 | cell viability, CellTiter-Glo |  | 72 h | baseline: IC50 HT-1080 over WI-38 | selectivity ratio | 1.6
Cc1nn(-c2nc3ccccc3s2)c(O)c1C(c1ccccc1C(=O)O)c1c(C)nn(-c2nc3ccccc3s2)c1O | THP1-Dual | IFN luciferase reporter |  | 20 µM, added: HT-DNA |  | inhibition | 38.3% and 39.7% and 39.5%
CCOC(=O)C1=C(C)NC2=C(C(=O)CC(c3ccc(OC)c(OC)c3)C2)C1c1ccc(Cl)cc1C (mixture of isomers) | J774.A1 | cytotoxicity |  |  |  | EC50 | > 20 µM
CC(C)=CCC[C@@]1(C)C(CC[C@H]2[C@]3(C)CC[C@H](O)C(C)(C)O[C@H]3CC[C@@]2(C)O)=C(C)CC[C@H]1O | KB-3-1 |  |  | 10 µM |  | intracellular [3H]-paclitaxel | no effect
Cn1cc(Nc2nccc(-c3ccc4c(c3)CN(C3COC3)CC[C@H]4NC(=O)c3cn(C(C)(C)C)nn3)n2)cn1 | mouse splenic B cells | refers to: IL-23 signalling pathway |  | 30 mg/kg, IgD-activated in vivo | baseline: vehicle, direction not given | pathway activation z-score | 2.33
CC(C)(c1ccc(O)cc1)c1ccc(O)cc1 | HepG2 spheroids | Hoechst flow cytometry |  | 0.10 µM, 96 h |  | G2 phase cells | 13.3 ± 2.14%
Nc1cccc2c1CN(C1CCC(=O)NC1=O)C2=O (centres unmarked) | BRD4-HiBiT cells | BRD4 degradation rescue, inhibitor |  | 24 h, added: dBET6 500 nM |  | EC50 | 2.13 µM
CCOC(=O)C1=C(C)NC2=C(C(=O)OC(c3cc(OC)c(OC)c(OC)c3)C2)C1c1ccccc1Cl (centres unmarked) | J774.A1 | cytotoxicity |  |  |  | EC50 | > 20 µM
COc1ccc(-n2nc(C(C)=O)s/c2=N\N=C(/C)c2ccc(NC(=O)c3ccc(Cl)cc3)cc2)cc1 | MCF7 |  |  | 0.078 µM |  | toxicity | 15.2%
[Cl][111In]([Cl])[Cl] | U2OS-53BP1 |  |  | concentration not given, 16 h |  | DNA-bound fraction | ≤ 0.01%
NCCOc1cc(C(=O)Nc2cc(OCCN3CCCC3)c3ccccc3n2)nc(C(=O)Nc2cc(OCCN3CCCC3)c3ccccc3n2)c1 | HT-1080 | cell viability, CellTiter-Glo |  | 72 h | baseline: IC50 HT-1080 over WI-38 | selectivity ratio | 2.6
C=CCn1c(=O)c2cnc(Nc3ccc(N4CCN(C)CC4)cc3)nc2n1-c1ccc2c(n1)[C@@](O)(CC)CC2 | NCI-H1048 | flow cytometry, refers to: pHH3-γH2Ax+ |  | concentration not given |  | G2/M cells in subpopulation | 10.9%
CCOC(=O)C1=C(c2ccccc2)NC2=C(C(=O)CC(c3ccc(OC)c(OC)c3)C2)C1c1ccccc1Cl (centres unmarked) | J774.A1 | cytotoxicity |  |  |  | EC50 | > 20 µM
Nc1cccc2c1C(=O)N(C1CCC(=O)NC1=O)C2=O (centres unmarked) | RPMI-8226 | flow cytometry, refers to: CD151 |  | concentration not given | baseline: comparator compound alone | surface marker level | 201%
CCCN1CCN(c2ccc3nc(-c4ccc5nc(-c6cc(OC)ccc6OC)[nH]c5c4)[nH]c3c2)CC1 | MDA-MB-435 | SRB |  | 10 µM, 48 h |  | growth percent | 106%
O=P(O)(O)C(O)(Cn1ccnc1)P(=O)(O)O | hFOB 1.19 | AlamarBlue |  | 7.5 µM, 24 h | baseline: control | viability | 101 ± 1%
O=c1[nH]nc(OCCCc2ccc(Cl)cc2)c(NCc2cccnc2)c1Br | HEK-293T | RNA-seq GSEA, refers to: HALLMARK_PEROXISOME |  | concentration not given | direction not given | normalized enrichment score | 0.758
COc1ccc(C2CC(=O)C3=C(C2)NC(C)=C(C(=O)O)C3c2ccccc2Cl)cc1OC (centres unmarked) | J774.A1 | cytotoxicity |  |  |  | EC50 | > 20 µM
CC(NCCc1ccc(O)cc1)C(O)c1ccc(O)cc1 (centres unmarked) | MDA-MB-231 BAX/BAK siRNA knockdown | cell viability, CellTiter-Glo |  |  | direction not given | Z score | 1.31
CCn1cc(-c2cc(Cn3ccoc3=N)cc3c2CCN([C@@H](C)c2cc(OC)ccn2)C3=O)c(C(F)(F)F)n1 | SU-DHL-8 | cell growth, inhibitor |  | 120 h |  | EC50 | 0.545 µM
CSc1cc(Oc2ccnc3[nH]c(=O)cnc23)ccc1NC(=O)Nc1cc(C(C)(C)C)nn1-c1ccccc1 | patient-derived A cell clone line | reverse phase protein array | human | 1 µM, 4 h | baseline: DMSO | phospho-Ser73 c-Jun to total ratio | 0.8
COc1cnc2cccc(N3CCc4c(cc(Cn5ccnc5C)cc4-c4cn(C)nc4C(F)(F)F)C3=O)c2c1 | SU-DHL-8 | cell growth, inhibitor |  | 120 h |  | EC50 | 0.287 µM
FC(F)(F)COCC(F)(F)F | MDA-MB-231 BAX/BAK siRNA knockdown | cell viability, CellTiter-Glo |  |  | direction not given | Z score | 1.73
